# Published values pooled from the literature.
# Organism: Escherichia coli
Compound,test,system,conditions,quantity,result
CC[C@H](C)[C@H](NC(=O)[C@H](CO)NC(=O)[C@H](CO)NC(=O)[C@H](Cc1ccccc1)NC(=O)CN)C(=O)N[C@@H](Cc1ccccc1)C(=O)N[C@@H](CCCNC(=N)N)C(=O)NCC(=O)N[C@H](C(=O)N[C@@H](C)C(=O)N[C@@H](CCCCN)C(=O)N[C@@H](Cc1ccccc1)C(=O)N[C@@H](C)C(=O)N[C@@H](CO)C(=O)N[C@@H](CCCCN)C(=O)NCC(=O)N[C@@H](CC(C)C)C(=O)NCC(=O)N[C@@H](CCCCN)C(=O)N[C@@H](CC(=O)O)C(=O)N[C@@H](CC(C)C)C(=O)N[C@@H](C)C(=O)N[C@@H](CCCNC(=N)N)C(N)=O)C(C)C,,ATCC 8739,MIC,time to complete killing,90 min
CCCCCC(=O)NCC(=O)N[C@@H](CC(C)C)C(=O)N[C@@H](CC(C)C)C(=O)N[C@@H](CCCCN)C(=O)N[C@@H](CCCNC(=N)N)C(=O)N[C@H](C(=O)N[C@@H](CCCCN)C(=O)N[C@H](C(=O)N[C@@H](CC(C)C)C(=O)N[C@@H](CC(C)C)C(=O)NCCCC[C@H](NC(=O)[C@H](CC(C)C)NC(=O)[C@H](CC(C)C)NC(=O)[C@@H](NC(=O)[C@H](CCCCN)NC(=O)[C@@H](NC(=O)[C@H](CCCNC(=N)N)NC(=O)[C@H](CCCCN)NC(=O)[C@H](CC(C)C)NC(=O)[C@H](CC(C)C)NC(=O)CNC(=O)CCCCC)[C@@H](C)CC)[C@@H](C)O)C(N)=O)[C@@H](C)O)[C@@H](C)CC,checkerboard,ATCC 25922,with: polymyxin B,FIC index,0.125
CC(C)=CCCC1(C)CC=NO1 (stereo not drawn),,K12,,IC50,> 500 µM
CC[C@H](C)[C@H](N)C(=O)N[C@@H](CC(C)C)C(=O)N[C@@H](CO)C(=O)N[C@@H](C)C(=O)N[C@@H](C)C(=O)N[C@@H](Cc1ccc(O)cc1)C(=O)N[C@@H](CO)C(=O)NCC(=O)N[C@H](C(=O)N[C@H](C(=O)N[C@@H](CO)C(=O)N[C@@H](CC(C)C)C(=O)N[C@H](C(=O)NCCCCCC(=O)N[C@@H](Cc1c[nH]c2ccccc12)C(N)=O)[C@@H](C)CC)[C@@H](C)CC)[C@@H](C)CC,,pb3,,growth inhibitory concentration,≥ 10 µM
CC[C@H](C)[C@H](NC(=O)[C@H](CCCCN)NC(=O)[C@H](CCCCN)NC(=O)[C@H](CC(C)C)NC(=O)[C@H](CCCCN)NC(=O)[C@H](CCC(=O)O)NC(=O)[C@H](CCCCN)NC(=O)[C@@H](NC(=O)[C@H](CCCCN)NC(=O)[C@H](CC(N)=O)NC(=O)[C@H](CCCNC(=N)N)NC(=O)[C@H](Cc1ccccc1)NC(=O)[C@H](CCCCN)NC(=O)[C@H](CCCNC(=N)N)NC(=O)[C@H](CC(C)C)NC(=O)[C@H](CCCNC(=N)N)NC(=O)[C@H](CCCCN)NC(=O)[C@H](CCCNC(=N)N)NC(=O)[C@H](CC(C)C)NC(=O)CN)[C@@H](C)CC)C(=O)NCC(=O)N[C@@H](CCC(N)=O)C(=O)N[C@@H](CCCCN)C(=O)N[C@H](C(=O)N[C@@H](CCC(N)=O)C(=O)NCC(=O)N[C@@H](Cc1ccccc1)C(=O)N[C@H](C(=O)N1CCC[C@H]1C(=O)N[C@@H](CCCCN)C(=O)N[C@@H](CC(C)C)C(=O)N[C@@H](C)C(=O)N1CCC[C@H]1C(=O)N[C@@H](CCCNC(=N)N)C(=O)N[C@H](C(=O)N[C@@H](CC(=O)O)C(=O)N[C@@H](Cc1ccc(O)cc1)C(=O)O)[C@@H](C)O)C(C)C)[C@@H](C)CC,inhibition zone,DH5α,,lethal concentration,1.6 µM
C[C@]1(COC(=O)c2ccc(O)c(O)c2)[C@H](C(=O)O)N2C(=O)/C(=C/c3ccccn3)[C@H]2S1(=O)=O,broth microdilution,MG1655 expressing CTX-M-14,"16 µg/mL, 20 h, 37 °C",MIC of ampicillin,4 µg/mL
CCCCCCCCCCCCCCCC(=O)NCCCC[C@H](N)C(=O)N[C@@H](CCCCN)C(=O)N[C@@H](CCCCN)C(=O)N[C@@H](CCCCN)C(=O)N[C@@H](CCCCN)C(=O)N[C@@H](CCCCN)C(N)=O,,K12,,MBC,128 µg/mL
CC(C)C[C@H](NC(=O)[C@H](CCCCN)NC(=O)[C@H](C)NC(=O)[C@H](CC(C)C)NC(=O)[C@H](CCCCN)NC(=O)[C@H](CCC(N)=O)NC(=O)[C@H](CCCCN)NC(=O)[C@H](CC(C)C)NC(=O)[C@H](CCCCN)NC(=O)[C@H](CCC(N)=O)NC(=O)[C@H](CC(C)C)NC(=O)[C@H](CCCCN)NC(=O)[C@H](C)NC(=O)[C@H](CCCCN)NC(=O)[C@H](CC(C)C)NC(=O)[C@H](CCCCN)NC(=O)[C@H](C)NC(=O)[C@H](CC(C)C)NC(=O)[C@H](CCCCN)NC(=O)[C@H](CCC(N)=O)NC(=O)[C@@H](N)CCCCN)C(N)=O,LIVE/DEAD staining,10 mM phosphate buffer,"MIC, 30 min, pH 7.4, 37 °C",dead cells,< 30%
O=C(O)[C@@H]1Cc2c([nH]c3ccccc23)[C@@H](c2ccc(F)cc2Cl)N1,,BL21(DE3),"250 µM, 18 h",growth inhibition,0%
CCCC(=O)NCC(=O)N[C@@H](CC(C)C)C(=O)N[C@@H](CC(C)C)C(=O)N[C@@H](CCCCN)C(=O)N[C@@H](CCCNC(=N)N)C(=O)N[C@H](C(=O)N[C@@H](CCCCN)C(=O)N[C@H](C(=O)N[C@@H](CC(C)C)C(=O)N[C@@H](CC(C)C)C(=O)NCCCC[C@H](NC(=O)[C@H](CCCCNC(=O)[C@H](CC(C)C)NC(=O)[C@H](CC(C)C)NC(=O)[C@@H](NC(=O)[C@H](CCCCN)NC(=O)[C@@H](NC(=O)[C@H](CCCNC(=N)N)NC(=O)[C@H](CCCCN)NC(=O)[C@H](CC(C)C)NC(=O)[C@H](CC(C)C)NC(=O)CNC(=O)CCC)[C@@H](C)CC)[C@@H](C)O)NC(=O)[C@H](CC(C)C)NC(=O)[C@H](CC(C)C)NC(=O)[C@@H](NC(=O)[C@H](CCCCN)NC(=O)[C@@H](NC(=O)[C@H](CCCNC(=N)N)NC(=O)[C@H](CCCCN)NC(=O)[C@H](CC(C)C)NC(=O)[C@H](CC(C)C)NC(=O)CNC(=O)CCC)[C@@H](C)CC)[C@@H](C)O)C(N)=O)[C@@H](C)O)[C@@H](C)CC,checkerboard,ATCC 25922,with: gentamicin,FIC index,0.562
CC[C@H](C)[C@H](NC(=O)[C@H](CCCCN)NC(=O)[C@H](CCCCN)NC(=O)[C@H](CC(C)C)NC(=O)[C@H](CCCCN)NC(=O)[C@H](CCC(=O)O)NC(=O)[C@H](CCCCN)NC(=O)[C@@H](NC(=O)[C@H](CCCCN)NC(=O)[C@H](CC(N)=O)NC(=O)[C@H](CCCNC(=N)N)NC(=O)[C@H](Cc1ccccc1)NC(=O)[C@H](CCCCN)NC(=O)[C@H](CCCNC(=N)N)NC(=O)[C@H](CC(C)C)NC(=O)[C@H](CCCNC(=N)N)NC(=O)[C@H](CCCCN)NC(=O)[C@H](CCCNC(=N)N)NC(=O)[C@H](CC(C)C)NC(=O)[C@@H](N)CC(C)C)[C@@H](C)CC)C(=O)NCC(=O)N[C@@H](CCC(N)=O)C(=O)N[C@@H](CCCCN)C(=O)N[C@H](C(=O)N[C@@H](CCC(N)=O)C(=O)NCC(=O)N[C@@H](Cc1ccccc1)C(=O)N[C@H](C(=O)N1CCC[C@H]1C(=O)N[C@@H](CCCCN)C(=O)N[C@@H](CC(C)C)C(=O)N[C@H](C(=O)N1CCC[C@H]1C(=O)N[C@@H](CCCNC(=N)N)C(=O)N[C@H](C(=O)N[C@@H](CCC(=O)O)C(=O)N[C@@H](CO)C(=O)O)[C@@H](C)O)C(C)C)C(C)C)[C@@H](C)CC,inhibition zone,Am. J23a,,lethal concentration,1.95 µM
C[C@@](O)(C(F)F)[C@H](NC(=O)c1ccc(C#CC#CC2CC2)cc1)C(=O)NO,survival,"NDM-1 producing, CD-1 mice, infection model","IV then IP, daily dose basis",ED50,7.2 mg/kg/day

# For quick reference, copied from above:
Compound,test,system,conditions,quantity,result
CC[C@H](C)[C@H](NC(=O)[C@H](CCCCN)NC(=O)[C@H](CCCCN)NC(=O)[C@H](CC(C)C)NC(=O)[C@H](CCCCN)NC(=O)[C@H](CCC(=O)O)NC(=O)[C@H](CCCCN)NC(=O)[C@@H](NC(=O)[C@H](CCCCN)NC(=O)[C@H](CC(N)=O)NC(=O)[C@H](CCCNC(=N)N)NC(=O)[C@H](Cc1ccccc1)NC(=O)[C@H](CCCCN)NC(=O)[C@H](CCCNC(=N)N)NC(=O)[C@H](CC(C)C)NC(=O)[C@H](CCCNC(=N)N)NC(=O)[C@H](CCCCN)NC(=O)[C@H](CCCNC(=N)N)NC(=O)[C@H](CC(C)C)NC(=O)[C@@H](N)CC(C)C)[C@@H](C)CC)C(=O)NCC(=O)N[C@@H](CCC(N)=O)C(=O)N[C@@H](CCCCN)C(=O)N[C@H](C(=O)N[C@@H](CCC(N)=O)C(=O)NCC(=O)N[C@@H](Cc1ccccc1)C(=O)N[C@H](C(=O)N1CCC[C@H]1C(=O)N[C@@H](CCCCN)C(=O)N[C@@H](CC(C)C)C(=O)N[C@H](C(=O)N1CCC[C@H]1C(=O)N[C@@H](CCCNC(=N)N)C(=O)N[C@H](C(=O)N[C@@H](CCC(=O)O)C(=O)N[C@@H](CO)C(=O)O)[C@@H](C)O)C(C)C)C(C)C)[C@@H](C)CC,inhibition zone,Am. J23a,,lethal concentration,1.95 µM
